Literature values, collected from citations in different studies.
Organism: Plasmodium falciparum

| Structure (SMILES) | test | test system | conditions | how to read | measurement | result |
| --- | --- | --- | --- | --- | --- | --- |
| COc1cc(/C=C/C(=O)CC(=O)/C=C/c2ccc(O)c(OC)c2)ccc1O | parasite growth | chloroquine-resistant | – | – | IC50 | ~5000 nM |
| O=C(NC1CCC(CN2CCC(c3c[nH]c4ccccc34)CC2)CC1)c1cn(Cc2ccccc2)c2ccccc12 (stereo not drawn) | whole cell extended time | 3D7 | 72 h | – | IC50 | 1130 nM |
| Cc1cc(Nc2ccc(S(F)(F)(F)(F)F)cc2)n2nc(C(C)(F)F)nc2n1 | – | 3D7^0087/N9, humanized SCID mouse, blood | dose not given | – | average blood concentration for ED90 | 1.5 µM |
| CNCCCN(C)C(=O)Oc1c(Br)c(C)nc(C)c1-c1ccc(Oc2ccc(OC(F)(F)F)cc2)cc1 | whole cell extended time | 3D7 | 72 h | – | IC50 | 390 nM |
| N/C(CC(O)c1cc2c(F)cc(F)cc2c2cc(C(F)(F)F)ccc12)=N\c1ccc(F)cc1 (stereo not drawn) | parasite growth | Dd2 PfeEF2 mutant (DDD107498-resistant) | – | – | IC50 | 16 nM |
| O=C(NCCN1CCCC1)c1cc(-c2ccc(CN3CCOCC3)cc2)nc2ccc(F)cc12 | – | 3D7 I183T mutant | – | baseline: parental strain | IC50 fold increase | 5 fold |
| CCCCCCCSc1ccc(CC(C)NCC(O)c2cccc(Cl)c2)cc1 (stereo not drawn) | whole cell extended time | 3D7 | 72 h | – | IC50 | 180 nM |
| Cc1c(C2(c3ccc(C(F)(F)F)nc3)CC2)c[nH]c1C(=O)N[C@H](C)c1nc[nH]n1 | – | 3D7^0087/N9, humanized SCID mouse, plasma | – | – | unbound plasma concentration for ED90 | 0.17 µM |
| C/C=C1\NC(=O)[C@H]2CSSCC/C=C/[C@H](CC(=O)N[C@H](C(C)C)C(=O)N2)OC(=O)[C@H](C(C)C)NC1=O | – | – | – | baseline: IC50 Dd2 over IC50 3D7 | resistance index | 1.1 |
| c1ccc2c(c1)[I+]c1ccccc1-2 | – | – | – | – | EC50 | 0.06 nM |
| O=C(NC1CCC(CN2CCC(c3c[nH]c4ccccc34)CC2)CC1)c1[nH]c(=O)[nH]c(=O)c1F (stereo not drawn) | whole cell extended time | 3D7 | 72 h | – | IC50 | 800 nM |
| CC(C)(C)NCc1ccc(Nc2ccnc3cc(Cl)ccc23)cc1O | parasite growth | 3D7 | literature value | – | IC50 | 11.2 nM |
